Measurements from different studies.
Each numbered part is a random draw from the data of one study; scales do not carry over between parts.

Set 1 — method: protein-binding microarray; form: double-stranded DNA, one strand shown; matrix: in vitro; tested at: 2540 nM top; notes: 60-bp whole probe; added: salmon DNA 0.4 mg/ml; reference: random background probes; reading: higher = stronger binding; all sequences stand within: GCCTAGCAC … GTCTTGATTCGCTTGACGCTGCTG
Target: Interferon regulatory factor 3, full length, phosphomimetic (IRF3, Homo sapiens, UniProt Q14653, residues 1-427, S386D/S396D/S398D/S402D/T404D/S405D)
Residues (chain): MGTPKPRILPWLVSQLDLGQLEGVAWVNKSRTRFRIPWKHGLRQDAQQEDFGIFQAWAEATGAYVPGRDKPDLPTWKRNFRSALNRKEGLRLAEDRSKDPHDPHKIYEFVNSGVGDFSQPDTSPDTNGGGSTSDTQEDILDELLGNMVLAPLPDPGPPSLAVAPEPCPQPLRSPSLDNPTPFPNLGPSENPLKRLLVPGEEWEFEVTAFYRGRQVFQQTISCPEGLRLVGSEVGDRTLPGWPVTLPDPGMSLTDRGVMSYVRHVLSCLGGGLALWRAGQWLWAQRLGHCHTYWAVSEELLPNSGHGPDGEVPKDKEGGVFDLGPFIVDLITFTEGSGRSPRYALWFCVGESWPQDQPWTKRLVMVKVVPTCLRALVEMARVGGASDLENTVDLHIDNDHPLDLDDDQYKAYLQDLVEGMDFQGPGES
Sequence | fitted relative affinity
GAAGGTTTCGGTATCGGGACGTGCTAG | 8.71 z-score
TTAGGAATGGGACTGGGTTAGTGCTAG | -0.803 z-score
AGAGATGTGGGACTCACCTAGTGCTAG | -0.551 z-score
ACGAGTTTCCATTTTCTGAAGTGCTAG | 8.75 z-score
GCGATCCTCTCACCTCAGCCTGTGCTA | 0.407 z-score
TTAGGTTTCAGTATCGATTAGTGCTAG | 5.27 z-score

Set 2 — method: protein binding microarray; form: double-stranded DNA, one strand shown; matrix: in vitro; tested at: not given; reference: not given; reading: higher = stronger binding
Target: Histone acetyltransferase KAT6A, winged helix 2, GST fusion (KAT6A, Homo sapiens, UniProt Q92794, residues 85-181)
Notes: 8-mer, flanks averaged, mean of 2 arrays, mostly near background
Construct (chain): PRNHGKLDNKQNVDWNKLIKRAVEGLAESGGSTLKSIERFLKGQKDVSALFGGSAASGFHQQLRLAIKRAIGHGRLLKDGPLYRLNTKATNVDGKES
Sequence | E-score
ATAGTTAC | -0.0379
CTGTTCAC | -0.0691
AAACTTTA | -0.108
ATCCAATG | -0.131
CTGCAACA | 0.0884
CTTAGACC | -0.0268
CGCCCCTA | 0.0369
GAAATGGC | -0.0382
ACAAATCT | 0.0529

Set 3 — method: competition protein-binding microarray; form: double-stranded DNA, one strand shown; matrix: in vitro; tested at: 2 µM; added: Cbf1 competitor, 0.05 µM; reading: higher = stronger binding; all sequences stand within: … GTCTTGATTCGCTTGACGCTGCTG
Target: Phosphate system positive regulatory protein PHO4, full length, GST-tagged (PHO4, Saccharomyces cerevisiae, UniProt P07270, residues 1-312)
Notes: whole 60-bp probe, lowest competitor level
Residues (chain): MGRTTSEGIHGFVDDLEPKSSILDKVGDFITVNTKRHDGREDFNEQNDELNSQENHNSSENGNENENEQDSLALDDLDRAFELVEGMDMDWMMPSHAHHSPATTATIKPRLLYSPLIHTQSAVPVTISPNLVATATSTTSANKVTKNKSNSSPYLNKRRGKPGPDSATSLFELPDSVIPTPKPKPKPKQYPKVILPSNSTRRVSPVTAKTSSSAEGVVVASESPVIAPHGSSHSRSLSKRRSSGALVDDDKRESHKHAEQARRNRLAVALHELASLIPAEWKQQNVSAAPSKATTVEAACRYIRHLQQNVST
Sequence | fluorescence intensity [a.u.]
CGTCCTAGTGATTGTCACGTCACTTCCATGAGGAAG | 4560
CGGGCTGATCCCTTTATCGTGCATCTTGACCACTTT | 4120
AAGATTGGACTTCGGCACGGGCCTCGAACTTTCGTT | 9120
GACATGAAGTAGAGCAGCATGCAGACAGAATACATT | 7510
ACTTGATTTGCGGAGAACGTGATGGCGACGCACTCG | 12800

Mixed results
Molecule | target | assay | system | setting | scale | endpoint | value
PhoQ, residues 284 288 289 292 302 303 AQGLTV | PhoP, residues 12 14 15 18 19 QQAYL (Escherichia coli, UniProt P23836) | Sort-seq, refers to: YFP reporter | E. coli | PhoQ-PhoP variant library, added: 10 µM Mg2+ | reference: high Mg2+ state, higher = stronger signaling | fold induction | 3.07
